Assay results collected from several papers.
Numbers after ± are the reported error.
OPRL1: Nociceptin receptor (OPRL1, Homo sapiens, UniProt P41146)
Oprm1: Mu-type opioid receptor (Oprm1, Rattus norvegicus, UniProt P33535)
OPRD1: Delta-type opioid receptor (OPRD1, Homo sapiens, UniProt P41143)
OPRK1: Kappa-type opioid receptor (OPRK1, Homo sapiens, UniProt P41145)

Protein sequences, listed by entry. Tags and fused reporters are not part of them. Residues count along the entry.
UniProt P41146, whole entry: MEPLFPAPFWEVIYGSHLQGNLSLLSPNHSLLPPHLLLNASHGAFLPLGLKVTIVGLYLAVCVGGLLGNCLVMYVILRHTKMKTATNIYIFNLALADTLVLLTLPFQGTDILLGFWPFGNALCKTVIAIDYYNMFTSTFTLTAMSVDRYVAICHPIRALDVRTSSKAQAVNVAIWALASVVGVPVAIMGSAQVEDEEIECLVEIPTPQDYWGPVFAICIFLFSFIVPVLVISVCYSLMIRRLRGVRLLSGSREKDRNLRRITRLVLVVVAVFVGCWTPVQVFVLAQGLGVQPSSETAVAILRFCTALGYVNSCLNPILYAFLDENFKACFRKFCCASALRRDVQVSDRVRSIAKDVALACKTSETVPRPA
UniProt P33535, whole entry: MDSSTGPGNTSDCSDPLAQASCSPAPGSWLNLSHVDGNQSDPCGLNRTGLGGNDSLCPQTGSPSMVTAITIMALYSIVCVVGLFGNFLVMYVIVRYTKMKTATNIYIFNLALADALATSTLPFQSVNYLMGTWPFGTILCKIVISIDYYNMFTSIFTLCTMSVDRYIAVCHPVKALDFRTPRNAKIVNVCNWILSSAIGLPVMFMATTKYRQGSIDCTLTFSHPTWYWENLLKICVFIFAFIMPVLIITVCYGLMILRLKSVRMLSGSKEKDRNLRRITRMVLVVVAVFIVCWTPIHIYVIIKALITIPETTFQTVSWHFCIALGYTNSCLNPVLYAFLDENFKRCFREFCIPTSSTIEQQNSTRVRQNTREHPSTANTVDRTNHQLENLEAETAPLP
UniProt P41143, whole entry: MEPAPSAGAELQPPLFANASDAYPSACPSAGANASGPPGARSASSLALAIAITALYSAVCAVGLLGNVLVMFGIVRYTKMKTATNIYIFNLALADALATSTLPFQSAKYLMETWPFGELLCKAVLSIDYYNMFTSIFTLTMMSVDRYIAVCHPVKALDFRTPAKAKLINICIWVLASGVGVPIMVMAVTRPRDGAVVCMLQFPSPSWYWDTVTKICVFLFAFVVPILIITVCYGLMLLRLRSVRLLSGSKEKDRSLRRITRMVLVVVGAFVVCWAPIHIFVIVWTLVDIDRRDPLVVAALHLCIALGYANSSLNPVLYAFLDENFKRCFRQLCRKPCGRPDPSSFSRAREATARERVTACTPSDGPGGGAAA
UniProt P32300, whole entry: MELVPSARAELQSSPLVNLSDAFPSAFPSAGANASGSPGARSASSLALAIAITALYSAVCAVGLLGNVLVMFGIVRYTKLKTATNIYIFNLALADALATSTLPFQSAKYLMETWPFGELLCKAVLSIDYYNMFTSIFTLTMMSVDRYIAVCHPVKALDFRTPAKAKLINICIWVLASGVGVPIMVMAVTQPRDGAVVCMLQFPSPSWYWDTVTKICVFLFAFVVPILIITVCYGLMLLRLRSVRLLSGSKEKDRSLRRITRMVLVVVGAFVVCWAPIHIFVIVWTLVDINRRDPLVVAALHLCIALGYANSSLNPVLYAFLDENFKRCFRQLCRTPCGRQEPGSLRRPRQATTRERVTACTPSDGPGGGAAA
UniProt P54753, whole entry, looked up: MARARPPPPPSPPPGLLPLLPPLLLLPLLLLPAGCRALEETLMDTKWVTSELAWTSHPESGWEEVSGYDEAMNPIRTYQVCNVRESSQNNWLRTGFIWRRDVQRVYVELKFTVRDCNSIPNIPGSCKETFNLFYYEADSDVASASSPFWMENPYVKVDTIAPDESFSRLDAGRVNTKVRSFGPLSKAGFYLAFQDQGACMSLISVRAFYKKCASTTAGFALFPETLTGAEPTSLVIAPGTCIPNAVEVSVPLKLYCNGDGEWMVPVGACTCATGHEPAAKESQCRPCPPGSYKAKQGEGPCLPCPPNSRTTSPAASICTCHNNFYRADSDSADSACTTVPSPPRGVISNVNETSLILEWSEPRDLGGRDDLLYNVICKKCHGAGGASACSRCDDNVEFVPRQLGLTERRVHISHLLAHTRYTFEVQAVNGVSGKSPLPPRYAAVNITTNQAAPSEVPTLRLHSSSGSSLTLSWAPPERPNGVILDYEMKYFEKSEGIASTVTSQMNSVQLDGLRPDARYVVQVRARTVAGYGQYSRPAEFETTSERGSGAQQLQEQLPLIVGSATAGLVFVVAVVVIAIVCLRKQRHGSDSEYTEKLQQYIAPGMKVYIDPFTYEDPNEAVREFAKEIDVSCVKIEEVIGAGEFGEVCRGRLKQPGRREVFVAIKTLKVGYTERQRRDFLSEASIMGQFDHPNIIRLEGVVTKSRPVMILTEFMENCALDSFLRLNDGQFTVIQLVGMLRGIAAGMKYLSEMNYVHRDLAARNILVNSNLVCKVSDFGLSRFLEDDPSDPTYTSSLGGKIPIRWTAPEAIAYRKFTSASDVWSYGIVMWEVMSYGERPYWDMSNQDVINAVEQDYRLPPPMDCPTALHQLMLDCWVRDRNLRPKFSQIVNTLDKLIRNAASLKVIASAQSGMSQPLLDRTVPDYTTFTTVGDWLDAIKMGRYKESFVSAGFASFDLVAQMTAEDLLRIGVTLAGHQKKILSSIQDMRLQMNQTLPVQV
UniProt P35372, whole entry: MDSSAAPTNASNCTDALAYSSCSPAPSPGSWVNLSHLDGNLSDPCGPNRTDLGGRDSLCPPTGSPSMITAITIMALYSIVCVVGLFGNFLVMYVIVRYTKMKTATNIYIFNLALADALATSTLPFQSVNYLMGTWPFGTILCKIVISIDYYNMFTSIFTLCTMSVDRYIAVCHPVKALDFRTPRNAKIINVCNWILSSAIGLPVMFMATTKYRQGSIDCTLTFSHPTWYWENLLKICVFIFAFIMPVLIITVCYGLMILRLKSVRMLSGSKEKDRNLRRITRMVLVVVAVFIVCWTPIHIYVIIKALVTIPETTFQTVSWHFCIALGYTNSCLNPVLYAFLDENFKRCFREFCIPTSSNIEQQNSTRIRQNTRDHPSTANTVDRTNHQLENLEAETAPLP
UniProt P21462, whole entry: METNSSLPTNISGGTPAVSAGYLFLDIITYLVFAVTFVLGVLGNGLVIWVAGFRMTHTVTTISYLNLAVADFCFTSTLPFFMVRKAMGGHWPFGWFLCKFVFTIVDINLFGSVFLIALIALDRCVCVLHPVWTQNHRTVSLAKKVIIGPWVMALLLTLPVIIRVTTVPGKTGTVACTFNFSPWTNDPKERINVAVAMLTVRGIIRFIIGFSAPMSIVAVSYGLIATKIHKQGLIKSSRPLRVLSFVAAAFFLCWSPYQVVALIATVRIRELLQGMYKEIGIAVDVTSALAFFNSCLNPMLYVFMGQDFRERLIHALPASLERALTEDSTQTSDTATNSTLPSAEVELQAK
UniProt P21462, whole entry R190W: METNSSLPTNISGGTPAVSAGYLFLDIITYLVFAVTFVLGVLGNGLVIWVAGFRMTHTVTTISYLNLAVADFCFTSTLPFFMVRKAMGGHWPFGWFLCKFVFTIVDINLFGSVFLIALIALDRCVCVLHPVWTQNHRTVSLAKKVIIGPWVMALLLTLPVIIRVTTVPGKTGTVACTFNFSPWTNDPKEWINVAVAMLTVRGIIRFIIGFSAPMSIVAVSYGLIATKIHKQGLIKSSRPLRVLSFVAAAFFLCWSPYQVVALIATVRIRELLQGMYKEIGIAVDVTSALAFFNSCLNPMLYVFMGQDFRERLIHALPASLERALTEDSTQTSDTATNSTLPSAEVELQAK
UniProt Q9UM73, whole entry T1151M, looked up: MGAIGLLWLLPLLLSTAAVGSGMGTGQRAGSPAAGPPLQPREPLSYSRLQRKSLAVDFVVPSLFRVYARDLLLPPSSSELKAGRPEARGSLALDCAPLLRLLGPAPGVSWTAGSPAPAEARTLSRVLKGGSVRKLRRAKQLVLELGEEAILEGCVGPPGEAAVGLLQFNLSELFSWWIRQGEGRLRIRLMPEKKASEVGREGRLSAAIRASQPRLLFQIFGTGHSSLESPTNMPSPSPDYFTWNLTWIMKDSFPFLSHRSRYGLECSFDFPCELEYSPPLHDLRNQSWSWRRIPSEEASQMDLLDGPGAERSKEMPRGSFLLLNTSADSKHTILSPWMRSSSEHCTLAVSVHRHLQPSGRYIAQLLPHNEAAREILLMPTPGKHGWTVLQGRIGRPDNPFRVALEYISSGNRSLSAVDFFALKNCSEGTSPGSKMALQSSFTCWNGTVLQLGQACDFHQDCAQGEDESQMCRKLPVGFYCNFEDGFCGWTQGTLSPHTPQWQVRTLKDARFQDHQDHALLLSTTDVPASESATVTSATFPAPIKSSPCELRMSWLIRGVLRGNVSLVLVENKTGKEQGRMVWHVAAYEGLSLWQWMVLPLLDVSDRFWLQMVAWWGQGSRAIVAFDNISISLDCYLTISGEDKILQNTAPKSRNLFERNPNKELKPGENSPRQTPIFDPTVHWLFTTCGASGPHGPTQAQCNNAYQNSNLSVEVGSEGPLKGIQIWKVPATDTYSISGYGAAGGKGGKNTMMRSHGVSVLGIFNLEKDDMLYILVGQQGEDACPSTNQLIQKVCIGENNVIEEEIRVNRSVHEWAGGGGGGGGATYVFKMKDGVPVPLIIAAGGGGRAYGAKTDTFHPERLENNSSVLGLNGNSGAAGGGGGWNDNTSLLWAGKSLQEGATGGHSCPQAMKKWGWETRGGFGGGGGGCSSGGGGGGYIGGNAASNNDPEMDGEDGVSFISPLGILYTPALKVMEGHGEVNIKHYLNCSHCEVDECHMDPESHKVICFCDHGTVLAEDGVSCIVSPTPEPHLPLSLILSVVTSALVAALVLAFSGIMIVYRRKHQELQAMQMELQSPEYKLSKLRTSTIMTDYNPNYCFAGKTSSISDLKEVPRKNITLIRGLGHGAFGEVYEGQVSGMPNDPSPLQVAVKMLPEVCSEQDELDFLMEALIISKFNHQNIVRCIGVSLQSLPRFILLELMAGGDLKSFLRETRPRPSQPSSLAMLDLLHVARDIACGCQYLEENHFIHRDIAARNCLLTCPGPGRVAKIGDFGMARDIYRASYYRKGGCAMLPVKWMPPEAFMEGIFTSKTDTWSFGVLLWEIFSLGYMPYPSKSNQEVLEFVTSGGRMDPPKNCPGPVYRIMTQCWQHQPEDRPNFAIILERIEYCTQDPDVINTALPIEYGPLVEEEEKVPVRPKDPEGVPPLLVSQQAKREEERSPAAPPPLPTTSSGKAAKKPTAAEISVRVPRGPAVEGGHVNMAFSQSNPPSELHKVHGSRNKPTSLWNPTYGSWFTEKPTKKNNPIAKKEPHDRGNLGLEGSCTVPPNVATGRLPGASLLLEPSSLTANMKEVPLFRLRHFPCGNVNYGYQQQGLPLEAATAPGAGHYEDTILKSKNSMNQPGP
UniProt Q51507, whole entry: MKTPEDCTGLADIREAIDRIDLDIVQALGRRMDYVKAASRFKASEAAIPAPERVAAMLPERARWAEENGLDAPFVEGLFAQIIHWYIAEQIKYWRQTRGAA
UniProt P71968, 1-258: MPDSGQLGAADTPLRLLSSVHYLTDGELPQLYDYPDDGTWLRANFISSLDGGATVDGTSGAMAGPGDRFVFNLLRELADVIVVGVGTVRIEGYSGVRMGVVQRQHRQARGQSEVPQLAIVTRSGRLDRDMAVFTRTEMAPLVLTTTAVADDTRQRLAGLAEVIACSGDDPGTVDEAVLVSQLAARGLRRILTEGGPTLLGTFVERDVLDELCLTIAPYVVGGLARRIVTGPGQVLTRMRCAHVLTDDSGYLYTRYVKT
UniProt P30926, 22-498 limits assumed: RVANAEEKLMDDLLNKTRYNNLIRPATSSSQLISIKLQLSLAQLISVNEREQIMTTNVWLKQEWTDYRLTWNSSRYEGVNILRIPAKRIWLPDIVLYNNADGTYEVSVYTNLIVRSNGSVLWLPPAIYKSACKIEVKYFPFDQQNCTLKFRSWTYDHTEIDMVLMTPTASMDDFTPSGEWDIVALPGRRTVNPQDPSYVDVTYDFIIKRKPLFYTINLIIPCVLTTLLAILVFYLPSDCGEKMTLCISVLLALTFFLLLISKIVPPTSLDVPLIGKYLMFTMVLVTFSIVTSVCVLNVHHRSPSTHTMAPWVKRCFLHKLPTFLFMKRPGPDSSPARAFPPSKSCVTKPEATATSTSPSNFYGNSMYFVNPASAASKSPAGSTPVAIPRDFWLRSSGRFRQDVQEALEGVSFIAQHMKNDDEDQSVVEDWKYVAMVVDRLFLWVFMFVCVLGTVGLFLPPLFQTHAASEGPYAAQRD
UniProt P32297, 32-505 limits assumed: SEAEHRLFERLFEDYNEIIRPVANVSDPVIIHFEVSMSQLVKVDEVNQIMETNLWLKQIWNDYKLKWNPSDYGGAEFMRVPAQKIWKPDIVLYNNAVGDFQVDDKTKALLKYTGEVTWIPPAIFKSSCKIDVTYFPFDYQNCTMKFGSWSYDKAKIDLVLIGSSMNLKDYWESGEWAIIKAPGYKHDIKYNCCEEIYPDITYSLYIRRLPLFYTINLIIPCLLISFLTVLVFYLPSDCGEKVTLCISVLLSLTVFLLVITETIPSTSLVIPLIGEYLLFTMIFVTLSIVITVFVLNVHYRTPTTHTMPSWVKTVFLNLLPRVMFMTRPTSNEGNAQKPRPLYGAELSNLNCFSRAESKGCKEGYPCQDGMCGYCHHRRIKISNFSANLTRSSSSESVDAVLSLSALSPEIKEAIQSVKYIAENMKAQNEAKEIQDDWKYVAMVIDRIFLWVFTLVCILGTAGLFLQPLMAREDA

Structure (SMILES)	target	test	system	setting	scale	quantity	value
CO[C@]12CC[C@@]3(C[C@@H]1[C@@](C)(O)c1ccc(C(C)(C)C)cc1)[C@H]1Cc4ccc(O)c5c4[C@@]3(CCN1CC1CC1)[C@H]2O5	OPRL1	radioligand binding	CHO	with: [3H]N/OFQ	–	Ki	133 ± 8.2 nM
CO[C@]12CC[C@@]3(C[C@@H]1C(C)(C)O)[C@H]1Cc4ccc(O)c5c4[C@@]3(CCN1CC1CC1)[C@H]2O5	Delta-type opioid receptor (Oprd1, Mus musculus, UniProt P32300)	radioligand displacement	mouse brain membranes	with: [3H]naltrindole	–	Ki	0.54 ± 0.04 nM
CO[C@]12CC[C@@]3(C[C@@H]1[C@](C)(O)c1cccs1)[C@H]1Cc4ccc(O)c5c4[C@@]3(CCN1CC1CC1)[C@H]2O5	Oprm1	binding, radioligand displacement	C6 rat glioma	with: [3H]diprenorphine	–	Ki	0.6 ± 0.14 nM
CC#C/C(=N\OC[C@H]1COCCN1)c1ccc2ncnc(Nc3ccc(OCc4cccc(F)c4)c(Cl)c3)c2c1	Ephrin type-B receptor 3 (EPHB3, Homo sapiens, UniProt P54753)	kinase activity	–	10 µM	–	inhibition	-11.7%
CO[C@]12CC[C@@]3(C[C@@H]1[C@](C)(O)c1ccccc1)[C@H]1Cc4ccc(O)c5c4[C@@]3(CCN1CC1CC1)[C@H]2O5	OPRD1	binding, radioligand displacement	CHO	with: [3H]DPDPE	–	Ki	1.9 ± 0.33 nM
CO[C@]12CC[C@@]3(C[C@@H]1[C@@](C)(O)C(C)(C)C)[C@H]1Cc4c(Br)cc(O)c5c4[C@@]3(CCN1CC1CC1)[C@H]2O5	OPRD1	radioligand binding	CHO	with: [3H]Cl-DPDPE	–	Ki	6.79 ± 0.99 nM
CC[C@](O)([C@H]1C[C@@]23CC[C@]1(OC)[C@@H]1Oc4c(O)ccc5c4[C@@]12CCN(CC1CC1)[C@@H]3C5)C(C)(C)C	OPRL1	binding, radioligand displacement	CHO	with: [3H]N/OFQ	–	Ki	105 ± 4 nM
CO[C@]12CC[C@@]3(C[C@@H]1[C@@](C)(O)C(C)(C)C)[C@H]1Cc4c(Cl)cc(O)c5c4[C@@]3(CCN1CC1CC1)[C@H]2O5	OPRL1	radioligand binding	CHO	with: [3H]N/OFQ	–	Ki	67.8 ± 20 nM
CO[C@]12C=C[C@@]3(C[C@@H]1[C@H](O)c1ccccc1)[C@H]1Cc4ccc(O)c5c4[C@@]3(CCN1CC1CC1)[C@H]2O5	OPRD1	binding, radioligand displacement	CHO	with: [3H]DPDPE	–	Ki	3.2 ± 0.48 nM
CC[C@H](C)[C@@H](CN1CCC(C)(c2cccc(F)c2)CC1)NC(=O)[C@H]1Cc2ccc(O)cc2CN1	Voltage-gated inwardly rectifying potassium channel KCNH2 (KCNH2, Homo sapiens, UniProt Q12809)	radioligand binding	hERG-expressing membranes	60 min, pH 7.4, with: [3H]astemizole	–	Ki	1670 nM
CO[C@]12CC[C@@]3(C[C@@H]1[C@@H](O)c1ccccc1)[C@H]1Cc4ccc(O)c5c4[C@@]3(CCN1CC1CC1)[C@H]2O5	Mu-type opioid receptor (OPRM1, Homo sapiens, UniProt P35372)	binding, radioligand displacement	CHO	with: [3H]DAMGO	–	Ki	0.82 ± 0.3 nM
COC(=O)[C@@H]1C[C@H](OC(=O)CSC#N)C(=O)[C@H]2[C@@]1(C)CC[C@H]1C(=O)O[C@H](c3ccoc3)C[C@]21C	OPRK1	radioligand competition	–	with: [3H]U69593	–	Ki	0.59 ± 0.21 nM
CC[C@H](C)[C@H](NC(=O)[C@H](Cc1c[nH]c2ccccc12)NC(=O)[C@H](CCC(N)=O)NC(=O)[C@H](CCCNC(=N)N)NC(=O)[C@H](Cc1c[nH]c2ccccc12)NC(=O)CNC(=O)[C@@H](NC(=O)[C@H](Cc1c[nH]c2ccccc12)NC(=O)[C@H](Cc1c[nH]c2ccccc12)NC(=O)[C@H](CC(N)=O)NC(=O)[C@H](CC(=O)O)NC(=O)[C@@H](N)CC(N)=O)[C@@H](C)O)C(=O)O	fMet-Leu-Phe receptor (FPR1, Homo sapiens, UniProt P21462)	binding, competition binding	–	4 °C, with: formyl-Nle-Leu-Phe-Nle-Tyr-Lys-FITC 0.3 nM	–	Ki	1400 ± 200 nM
CN(C(=O)Cc1ccccc1)[C@H]1CC[C@@]2(CCCO2)C[C@@H]1N1CCCC1	OPRL1	radioligand binding	CHO	with: [3H]N/OFQ	–	Ki	> 10000 nM
COC(=O)[C@@H]1C[C@H](OC(C)=O)C(=O)[C@H]2[C@@]1(C)CC[C@H]1C(=O)O[C@H](c3ccoc3)C[C@]21C	Oprm1	radioligand binding	CHO membranes	with: [3H]diprenorphine	–	Ki	> 1000 nM
CO[C@]12CC[C@@]3(C[C@@H]1[C@@](C)(O)c1ccncc1)[C@H]1Cc4ccc(O)c5c4[C@@]3(CCN1CC1CC1)[C@H]2O5	Oprm1	binding, radioligand displacement	C6 rat glioma	with: [3H]diprenorphine	–	Ki	0.16 ± 0.04 nM
CO[C@]12CC[C@@]3(C[C@@H]1[C@@](C)(O)C(C)(C)C)[C@H]1Cc4cc(Br)c(O)c5c4[C@@]3(CCN1CC1CC1)[C@H]2O5	OPRD1	radioligand binding	CHO	with: [3H]Cl-DPDPE	–	Ki	8.67 ± 0.81 nM
CCN1CCN(Cc2ccc(NC(=O)c3ccc(C)c(/C=C/c4cnc5[nH]ccc5c4OC)c3)cc2C(F)(F)F)CC1	ALK tyrosine kinase receptor (ALK, Homo sapiens, UniProt Q9UM73, T1151M)	inhibitor, cell-based kinome screen	–	5 µM	reference: no inhibitor	log2 fold change	0.692
O=[N+]([O-])c1cc(S(=O)(=O)c2cc([N+](=O)[O-])c(O)c([N+](=O)[O-])c2)cc([N+](=O)[O-])c1O	pchB (Pseudomonas aeruginosa, UniProt Q51507)	salicylate production, inhibitor, salicylate fluorescence	–	–	–	Ki	80 ± 8 nM
CC[C@H](C)[C@H](NC(=O)[C@H](Cc1ccc(O)cc1)NC(=O)[C@H](CCC(N)=O)NC(=O)[C@@H](N)CCC(=O)O)C(=O)N[C@@H](CCCCN)C(=O)N[C@@H](Cc1c[nH]c2ccccc12)C(=O)N1CCC[C@H]1C(=O)N[C@@H](Cc1c[nH]c2ccccc12)C(=O)N[C@@H](Cc1ccc(O)cc1)C(=O)N[C@H](C(=O)N[C@@H](Cc1c[nH]c2ccccc12)C(=O)N[C@@H](CC(C)C)C(=O)O)C(C)C	fMet-Leu-Phe receptor (FPR1, Homo sapiens, UniProt P21462, R190W)	binding, competition binding	–	4 °C, with: formyl-Nle-Leu-Phe-Nle-Tyr-Lys-FITC 0.3 nM	–	Ki	390 ± 30 nM
CC[C@@](O)(c1ccccc1)[C@H]1C[C@@]23C=C[C@]1(OC)[C@@H]1Oc4c(O)ccc5c4[C@@]12CCN(CC1CC1)[C@@H]3C5	OPRK1	binding, radioligand displacement	CHO	with: [3H]U-69593	–	Ki	0.95 ± 0.26 nM
CO[C@]12CC[C@@]3(C[C@@H]1[C@](C)(O)CC(C)(C)C)[C@H]1Cc4ccc(O)c5c4[C@@]3(CCN1CC1CC1)[C@H]2O5	OPRL1	radioligand binding	CHO	with: [3H]N/OFQ	–	Ki	18.5 ± 0.68 nM
CCc1nc(N)nc(N)c1C#C[C@@H](C)c1cc(OC)cc(-c2ccc(C(=O)O)cc2)c1	Riboflavin biosynthesis protein RibD (Mycobacterium tuberculosis, UniProt P71968)	inhibitor	–	with: NADPH 50 µM	–	Ki	80 ± 6.5 nM
O=C(C1CC1)N1CC2CC(C1)N2	Neuronal acetylcholine receptor; alpha3/beta4 (Homo sapiens, UniProt P30926+P32297)	competition binding	CHO expressing human α3β4, cell membranes	with: [3H]epibatidine	–	Ki	270 ± 63 nM
